Published values from different studies.
Each numbered part is a random draw from the data of one study; scales do not carry over between parts. Positions count from the first letter of the parent shown.

Series 1
Target: CCNA2, cyclin fold, Cln2 fusion (human)
Method: yeast growth competition, sequencing
Medium: yeast
Notes: strong parent motif
Reference: not given
Direction: higher = stronger binding
Endpoint: normalised enrichment score
Starting sequence: CDKN1B docking peptide (human); PSACRNLFGPVDH; partner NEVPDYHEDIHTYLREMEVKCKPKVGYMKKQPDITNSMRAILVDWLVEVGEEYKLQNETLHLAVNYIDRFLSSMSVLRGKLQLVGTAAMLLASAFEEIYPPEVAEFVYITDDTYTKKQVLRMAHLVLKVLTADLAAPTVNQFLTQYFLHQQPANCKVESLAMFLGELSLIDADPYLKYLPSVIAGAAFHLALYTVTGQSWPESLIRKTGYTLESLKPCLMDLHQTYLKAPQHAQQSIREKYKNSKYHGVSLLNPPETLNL
PSACRNLFPPVDH [G9P]: 2.92
PSACRNQFGPVDH [L7Q]: 0.43
PSACRNLFGLVDH [P10L]: 3.77
PSCCRNLFGPVDH [A3C]: 4.52
PSACRNLFGPVDL [H13L]: 3.67
PSACRNLFGPQDH [V11Q]: 3.38
PSACRNLFGPVNH [D12N]: 4.41
FSACRNLFGPVDH [P1F]: 3.78

Series 2
Target: RING finger protein unkempt homolog, zinc fingers 1-6, GST-SBP tag (UNK, Homo sapiens, UniProt Q9C0B0, residues 30-357)
UniProt Q9C0B0, sequence (30-357, looked up): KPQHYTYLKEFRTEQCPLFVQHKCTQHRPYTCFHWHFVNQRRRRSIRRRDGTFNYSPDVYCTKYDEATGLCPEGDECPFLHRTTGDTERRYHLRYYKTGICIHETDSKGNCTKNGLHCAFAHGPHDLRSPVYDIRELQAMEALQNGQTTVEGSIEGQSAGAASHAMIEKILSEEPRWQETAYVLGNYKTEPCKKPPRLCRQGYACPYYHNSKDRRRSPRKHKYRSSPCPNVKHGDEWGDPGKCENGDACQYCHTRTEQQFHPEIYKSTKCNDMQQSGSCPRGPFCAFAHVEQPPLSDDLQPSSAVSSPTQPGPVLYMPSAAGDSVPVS
Method: RNA Bind-n-Seq
Molecule type: RNA
Medium: in vitro
Concentration: not given
Notes: RNA with constant flanks, ends assumed
Reference: input RNA pool
Direction: higher = stronger binding
Endpoint: bound/input enrichment
All sequences stand within: GGGAGUUCUACAGUCCGACGAUC … CAACAGAGGAUUGAGCAUCA
ACCAGGGGAACUUCCAUCAAGGAGUUCCGGGAGAUGACCCUCAGCUUCCUCAAGGCUAACUCCGGAGACCUGCCUUCCCUGCCAGCGCUGGUUGACCAGAUACUUCUCAUGGCGGACUUC: 0.142 ratio
ACAGGUCAAGUGGUAGCCAUGAAAAAAAUCAGACUAGAAAGUGAAGAGGAAGGGGUUCCCCGUACUGCAAUUCGGGAAAUUUCUCUAUUAAAGGAACUUCGUCAUCCAAAUAUAGUCAGU: 0.297 ratio
ACAUUUUUAUGGUCUCCUAUGCCUGAACAUUAUGUGGAAGGAUCAACAGUCAAUUGUGUACCCGCAUUUCAAGGAUAUUACCUUCCAAAUGAUGAUGGAGAAUUUUAUCAGUUCUGUUAC: 0.166 ratio
UUGUCACCUGCUUUCCACCAAGCACUACUCUCUUUUUGUCGAAUGUCAGCAGAUAGUCGGUCCGGAUCAGAGGUGUCUAGGAUUGCAGACAGUGAAAAAAGUGUUAUGUUAAUGCUGGGA: 0.134 ratio
GAUUACAAGGGCCAGAAGCUAGCUGAACAGAUGUUUCAGGGAAUUAUUCUUUUUUCUGCAACCGUUGGAUUUAUCUACGGGUACGUGGCUGAACAGUUCGGGUGGACUGUCUAUAUAGUU: 0.505 ratio
GUUCUUUUAUUACUUUCAUCUAUACACUUCCAGUGUCGAAGGCUGGACAGAUCUGCUCAUUUCCGCACCUUGGCAAUUAAACAGAAUCCCCUUCUAGCAGAAGCCUAUUCGAAUUUGGGA: 0.318 ratio
UUACGCAUUGGAGUUGAUAACCACGUGUUACCCUUGGACUGUGUUACUCUGCAGACGUUCUCCGCAAAGUGCUUAGGACCCUUCGAUGAGUGGGAAAGCCGGCUAAGGGUGGCAAAGGAG: 0.123 ratio

Series 3
Target: ABI1, truncated, D143A, DHFR fusion (Arabidopsis thaliana)
Method: DHFR PCA, deep sequencing
Medium: yeast
Notes: methotrexate growth selection, single substitutions
With: (+)-ABA 0 µM
Reference: wild-type fitted maximum
Direction: higher = stronger binding
Endpoint: relative binding score
Starting sequence: PYL1, truncated, DHFR fusion (Arabidopsis thaliana); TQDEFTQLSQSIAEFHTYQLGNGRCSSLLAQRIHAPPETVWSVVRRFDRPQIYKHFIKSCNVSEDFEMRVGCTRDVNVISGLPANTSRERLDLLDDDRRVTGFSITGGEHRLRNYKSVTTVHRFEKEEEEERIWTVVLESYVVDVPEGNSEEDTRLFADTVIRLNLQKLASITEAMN; partner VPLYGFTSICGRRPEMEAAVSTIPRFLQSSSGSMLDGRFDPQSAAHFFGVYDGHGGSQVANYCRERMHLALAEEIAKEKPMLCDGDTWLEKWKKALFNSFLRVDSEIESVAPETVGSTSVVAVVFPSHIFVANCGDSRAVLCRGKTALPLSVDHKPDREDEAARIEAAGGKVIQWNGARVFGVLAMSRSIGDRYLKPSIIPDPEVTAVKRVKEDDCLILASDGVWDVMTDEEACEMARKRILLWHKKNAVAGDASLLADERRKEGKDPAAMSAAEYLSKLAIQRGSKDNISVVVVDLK
V76Q: 0.921%
G71C: 1.64%
F15M: -2.41%
G71L: 0.899%
Y141Q: -2.36%
K116E: 1.59%
I79P: -0.124%
E152N: 0.322%
E174W: -4.27%
N22H: 33.6%
S171R: 42.6%

Mixed results
PhoQ, residues 284 288 289 292 302 303 QWGLFV  fold induction (PhoP, residues 12 14 15 18 19 NMSFL (Escherichia coli, UniProt P23836); Sort-seq, refers to: YFP reporter; E. coli; PhoQ-PhoP variant library, with: 10 µM Mg2+; reference: high Mg2+ state, higher = stronger signaling): 2.53
